# Experimental data gathered from unrelated publications.
# Numbered parts are unrelated; each lists some results of a single study. Values joined by “and” are separate records of one study, mostly repeats; a detail may differ. ± marks the error that the study gave.

# Block 1
# Target: Replicase polyprotein 1ab, nsp13 helicase (rep, Severe acute respiratory syndrome coronavirus 2, UniProt P0DTD1)
# Mode: inhibitor
# Concentration: 20 µM
SMILES,inhibition
C=CC(=O)Nc1cc2c(Nc3ccc(F)c(Cl)c3)ncnc2cc1OCCCN1CCOCC1,8.67%
CO/N=C(\C(=O)N[C@@H]1C(=O)N2C(C(=O)OC(C)OC(C)=O)=C(COC(N)=O)CS[C@H]12)c1ccco1 (some centres unmarked),2.75%
C[S+]([O-])CCCCN=C=S (centres unmarked),9.05%
COc1ccc(-n2[nH]c3c4c(ncc3c2=O)CCCCC4)cc1,1.06%
Cc1nccc2[nH]c(=O)ccc12,1.5%
COC1=C(OC)C(=O)C(CCCCCCCCCCO)=C(C)C1=O,1.61%
CCCNC(C)(C)COC(=O)c1ccccc1,4.81%
CC(CC(C(N)=O)(c1ccccc1)c1ccccc1)N(C)C (centres unmarked),-4.02%
Cc1cccc(NC(=O)N[C@@H]2N=C(c3ccccc3)c3ccccc3N(CC(=O)c3ccccc3C)C2=O)c1,3.84%
CC[C@H](/C=C/[C@@H](C)[C@H]1CC[C@H]2[C@@H]3CC=C4C[C@@H](O)CC[C@]4(C)[C@H]3CC[C@]12C)C(C)C,0.42%
COC(=O)[C@H](Cc1ccc([N+](=O)[O-])cc1)NC(=O)c1cccc2ccccc12,0.07%
CC[C@]12C=CCN3CC[C@@]4(c5cc([C@@]6(C(=O)OC)C[C@@H]7C[C@@H](C(C)(F)F)CN(Cc8c6[nH]c6ccccc86)C7)c(OC)cc5N(C)[C@H]4[C@@](O)(C(=O)OC)[C@@H]1OC(C)=O)[C@@H]32,3.18%
CC(C)Oc1cccc(CC(=O)N2CCC[C@](CC[N+]34CCC(c5ccccc5)(CC3)CC4)(c3ccc(Cl)c(Cl)c3)C2)c1,8.32%
CC(=O)Oc1cc(C(C)C)c(OCCN(C)C)cc1C,-1.23%
O=C(O)c1ccc(OCCn2ccnc2)cc1,0.93%
CCOc1ccc(NC(=O)CC(C)O)cc1 (centres unmarked),5.57%
C=CC(=O)N1CCC(Oc2cc3c(Nc4ccc(Cl)c(Cl)c4F)ncnc3cc2OC)CC1,-0.45%
Cc1cccc(C)c1NC(=O)c1ccccc1C(=O)O,4.83%
C[N+](C)(C)CCOC(N)=O,4.53%
Cc1cc(C(C)(C)C)c(O)c(C)c1CC1=NCCN1,1.32%
COc1ccc(C(=O)C2CCN(CC(=O)N(Cc3nc4c(c(=O)[nH]3)COCC4)CC3CC3)CC2)cc1,4.93%
CC[n+]1c(-c2ccccc2)c2cc(N)ccc2c2ccc(N)cc21,59.5%
C#Cc1cccc(Nc2ncnc3cc4c(cc23)OCCOCCOCCO4)c1,5.73%
CCCCC1OC(=O)c2ccccc21 (centres unmarked),12.4%
COc1cc(C(=O)NC2CCCNC2)cc(OC)c1OC (centres unmarked),2.79%

# Other studies, line by line
# rep main protease: Replicase polyprotein 1ab, main protease (rep, Severe acute respiratory syndrome coronavirus 2, UniProt P0DTD1)
Structure (SMILES),target or system,test,test system,conditions,how to read,measurement,value
OCc1cc(C(O)CNCCCCCCOCCCCc2ccccc2)ccc1O (centres unmarked),SARS-CoV-2,"viral replication, GFP plate reader screen",,cell-based,,EC50,19.1 µM
Cc1cccc(CN2CCN(C(c3ccccc3)c3ccc(Cl)cc3)CC2)c1 (centres unmarked),SARS-CoV-2,viral replication,Huh-7,,,IC50,> 2 µM
CSCC[C@H](NC(=O)[C@H](CCCNC(=N)N)NC(=O)[C@H](Cc1ccccc1)NC(=O)[C@H](CS)NC(=O)[C@H](C)NC(=O)[C@@H](NC(=O)[C@@H](NC(=O)[C@H](C)NC(=O)[C@H](CCCNC(=N)N)NC(=O)[C@H](CCCNC(=N)N)NC(=O)[C@H](CCCNC(=N)N)NC(=O)[C@H](CCC(N)=O)NC(=O)[C@H](CCCCN)NC(=O)[C@H](CO)NC(=O)[C@H](CC(C)C)NC(=O)[C@H](CC(C)C)NC(=O)[C@H](CCCCN)NC(=O)[C@H](Cc1c[nH]cn1)NC(=O)[C@H](Cc1c[nH]c2ccccc12)NC(=O)[C@@H](NC(=O)[C@H](C)NC(=O)[C@H](CCCCN)NC(=O)[C@H](CCCCN)NC(=O)[C@H](CO)NC(=O)[C@H](CCCCN)NC(C)=O)C(C)C)C(C)C)C(C)C)C(=O)N[C@H](C(=O)N1CCC[C@H]1C(=O)N[C@@H](CC(C)C)C(=O)N[C@@H](Cc1ccc(O)cc1)C(=O)N[C@@H](CC(N)=O)C(N)=O)[C@@H](C)O,calmodulin 1-148 sites I and II,"calcium binding, Phe fluorescence titration",,"12 µM, pH 7.4, 22 °C, together with: 6 µM calmodulin",,apparent ΔG2,-16.5 ± 0.18 kcal/mol
CC[C@H](C)[C@H](NC(=O)[C@H](C)NC(=O)[C@H](CCC(=O)O)NC(=O)[C@H](CCC(=O)O)NC(=O)[C@H](CC(C)C)NC(=O)[C@H](CCCCN)NC(=O)[C@H](CCCCN)NC(=O)[C@H](CCSC)NC(=O)[C@H](CCC(=O)O)NC(=O)[C@H](Cc1ccc(O)cc1)NC(=O)[C@H](CCC(=O)O)NC(=O)[C@H](CC(C)C)NC(=O)[C@H](CC(=O)O)NC(=O)[C@H](CC(C)C)NC(=O)[C@H](Cc1ccccc1)NC(=O)[C@@H](NC(=O)[C@@H](NC(=O)[C@H](CC(N)=O)NC(=O)[C@@H](NC(=O)[C@H](CCC(N)=O)NC(=O)[C@H](CC(=O)O)NC(=O)[C@H](CC(C)C)NC(=O)[C@@H](N)CO)[C@@H](C)CC)C(C)C)[C@@H](C)O)C(=O)N[C@@H](CCCCN)C(=O)N[C@@H](CCCCN)C(=O)N[C@@H](CC(C)C)C(=O)N[C@@H](CCC(=O)O)C(=O)N[C@@H](CCC(=O)O)C(=O)N[C@@H](CO)C(=O)N[C@@H](Cc1ccc(O)cc1)C(=O)N[C@H](C(=O)N[C@@H](CC(=O)O)C(=O)N[C@@H](CC(C)C)C(=O)N[C@@H](CCCCN)C(=O)N[C@@H](CCC(=O)O)C(=O)N[C@@H](CC(C)C)C(=O)NCC(=O)N[C@@H](CO)C(=O)NCC(=O)N[C@@H](CO)C(=O)NCC(=O)NCCOCCOCCOCCOCCC(=O)N[C@@H](CSCC(=O)O[C@H]1CC[C@@]2(C)C(=CC[C@H]3[C@@H]4CC[C@H]([C@H](C)CCCC(C)C)[C@@]4(C)CC[C@@H]32)C1)C(N)=O)[C@@H](C)CC,SARS-CoV-2,pseudovirus infection,mouse serum,concentration not given,,loss of inhibitory activity,~40%
CNC(=O)[C@@H](NC(=O)[C@H](CC(C)C)[C@H](O)C(=O)NO)C(C)(C)C,Daboia russelii venom proteases (SVMP),"protease activity, inhibitor",MH population,"0.001 µM, together with: azocasein substrate",baseline: venom alone,remaining activity,99.3% and 98.5% and 96.1%
O=C(CSc1nc2ccccc2c(=O)[nH]1)Nc1ccccc1C(=O)O,SARS-CoV-2,viral cytopathic effect,"Vero E6, NRC-03-nhCoV",,,IC50,104 µM
O=C(Nc1ccc(N2CCOCC2)cc1)c1cc2occc2n1Cc1ccc(Cl)cc1,Zaire ebolavirus,pseudovirus entry,A549,,,EC50,> 100 µM
O=C(NC[C@@H]1CC2(CCOCC2)CN1C(=O)C1=Cc2ccccc2OC1)c1cncnc1,rep main protease,"enzyme activity, inhibitor",,"5 µM, mean of runs",,inhibition,11.2%
CCN(CC)CCO[C@H]1CC[C@@]2(C)C(=CC[C@@H]3[C@@H]2CC[C@]2(C)C(=O)CC[C@@H]32)C1,SARS-CoV-2,"viral replication, RT-qPCR",A549 expressing ACE2,,,IC50,0.055 µM
Oc1c(Br)cc(Br)cc1-c1[nH]c(Br)c(Br)c1Br,Brucella anthropi,,ATCC 49687,,,MIC,2 µM
O=C1[C@H]2CSC3(C(=O)c4ccccc4C3=O)N2C(=O)[C@H]2CSC3(C(=O)c4ccccc4C3=O)N12,rep main protease,"viral replication, mKate2 reporter",SARS-CoV-2,20 µM,,inhibition,-0.459%
C=C1CC[C@@H]2[C@](C)(CO)[C@H](O)CC[C@@]2(C)[C@@H]1C/C=C1/C(=O)OC[C@H]1O,SARS-CoV-2,"viral replication, high-content imaging screen",,cell-based,,EC50,> 100 µM
O=NN(CCCl)C(=O)NC1CCCCC1,HEK-293T/ACE2,,,"concentration not given, 16 (unit not given)",baseline: vehicle,viability,100%
Oc1cc(CNC(=S)/C=C/c2cc(O)c(O)c(Br)c2)cc(O)c1O,rep main protease,"enzyme activity, inhibitor",,20 µM,,inhibition,-4.64%
Cn1cnc(Cn2c(=O)[nH]/c(=N\c3cc4cn(C)nc4cc3Cl)n(Cc3cc(F)c(F)cc3F)c2=O)n1,,,"human, moderate renal impairment, plasma","oral, 375 mg single dose",,AUC(0-last),1440 µg·h/mL
COc1ccc(-c2oc3ccccc3c(=O)c2N)cc1N,rep main protease,"viral replication, mKate2 reporter",SARS-CoV-2,20 µM,,inhibition,-1.05%
CC[C@H](C)[C@H](NC(=O)[C@@H](NC(=O)[C@H](CC(=O)O)NC(=O)[C@H](CC(C)C)NC(=O)[C@H](CO)NC(=O)[C@@H](NC(=O)[C@H](C)N)[C@@H](C)O)C(C)C)C(=O)N[C@@H](CC(N)=O)C(=O)N[C@@H](Cc1ccc(O)cc1)C(=O)O,"HLA class I histocompatibility antigen, A alpha chain, allele A*11:01 (Homo sapiens, UniProt P04439)",biochemical,,,,IC50,0.0068 µM
CN(C)CCOC(C)(c1ccccc1)c1ccccn1 (centres unmarked),SARS-CoV-2,viral replication,A549 expressing ACE2,inactive set pIC50 4,,IC50,> 10 µM
Cc1cc(/C=C/C#N)cc(C)c1-n1cnc2cnc(Nc3ccc(/C=C/C#N)cc3)nc21,HIV-1,"viral replication, single-round infection",RT mutant D67E,,,EC50,> 0.007 µM
CN(C)CCNC(=O)c1ccc2c(c1)C1(CCN(CC3CC3)C1)CN2Cc1ccccc1 (centres unmarked),SARS-CoV-2,cytopathic effect,USA_WA1/2020,"retest, 8-point, duplicates",,efficacy,98%
NC(=O)c1ccc(/C=C/C(=O)N2C[C@H]3CCC[C@@H](C2)N3C(=O)CCn2c(O)ccc2O)cc1,rep main protease,"enzyme activity, inhibitor",,"5 µM, run 2",,inhibition,12.5%
CCOc1ccc(NC(=O)c2cnn(-c3ccc(C)c(Cl)c3)c2C2CCNCC2)cc1,SARS-CoV-2,cytopathic effect,USA_WA1/2020,"retest, 8-point, duplicates",,maximum response,33.9%
COCCNC(=O)C1CCCN(C2CCN(C(=O)c3cccnn3)CC2)C1 (centres unmarked),Lassa mammarenavirus,viral replication,Huh-7,"10 µM, 72 h",,remaining activity,62%
CCOC(=O)CC(SP(=S)(OC)OC)C(=O)OCC (centres unmarked),"uncharacterized protein (Anopheles coluzzii, UniProt A0A6E8VQK1)","enzyme activity, inhibitor",Sf9 cell homogenate,"0.004545 µM, 0.1667 h, together with: α-naphthyl acetate substrate",baseline: no inhibitor,remaining activity,104%
CCOC(=O)c1c(NC(=O)c2cc3ccccc3o2)sc(C)c1C,"Replicase polyprotein 1ab, nsp14 N7-methyltransferase (rep, Severe acute respiratory syndrome coronavirus 2, UniProt P0DTD1)","N7-methyltransferase activity, inhibitor, Py-FLINT",,,,Hill slope,1.08 ± 0.06

# Repeated from above (other studies, line by line):
Structure (SMILES),target or system,test,test system,conditions,how to read,measurement,value
C=C1CC[C@@H]2[C@](C)(CO)[C@H](O)CC[C@@]2(C)[C@@H]1C/C=C1/C(=O)OC[C@H]1O,SARS-CoV-2,"viral replication, high-content imaging screen",,cell-based,,EC50,> 100 µM
O=NN(CCCl)C(=O)NC1CCCCC1,HEK-293T/ACE2,,,"concentration not given, 16 (unit not given)",baseline: vehicle,viability,100%
Oc1cc(CNC(=S)/C=C/c2cc(O)c(O)c(Br)c2)cc(O)c1O,rep main protease,"enzyme activity, inhibitor",,20 µM,,inhibition,-4.64%
Cn1cnc(Cn2c(=O)[nH]/c(=N\c3cc4cn(C)nc4cc3Cl)n(Cc3cc(F)c(F)cc3F)c2=O)n1,,,"human, moderate renal impairment, plasma","oral, 375 mg single dose",,AUC(0-last),1440 µg·h/mL
COc1ccc(-c2oc3ccccc3c(=O)c2N)cc1N,rep main protease,"viral replication, mKate2 reporter",SARS-CoV-2,20 µM,,inhibition,-1.05%
CC[C@H](C)[C@H](NC(=O)[C@@H](NC(=O)[C@H](CC(=O)O)NC(=O)[C@H](CC(C)C)NC(=O)[C@H](CO)NC(=O)[C@@H](NC(=O)[C@H](C)N)[C@@H](C)O)C(C)C)C(=O)N[C@@H](CC(N)=O)C(=O)N[C@@H](Cc1ccc(O)cc1)C(=O)O,"HLA class I histocompatibility antigen, A alpha chain, allele A*11:01 (Homo sapiens, UniProt P04439)",biochemical,,,,IC50,0.0068 µM
CN(C)CCOC(C)(c1ccccc1)c1ccccn1 (centres unmarked),SARS-CoV-2,viral replication,A549 expressing ACE2,inactive set pIC50 4,,IC50,> 10 µM
Cc1cc(/C=C/C#N)cc(C)c1-n1cnc2cnc(Nc3ccc(/C=C/C#N)cc3)nc21,HIV-1,"viral replication, single-round infection",RT mutant D67E,,,EC50,> 0.007 µM
